Results pooled from the literature.
Parts stem from different laboratories: compare values within a part only.
UniProt P36896, sequence (whole entry, looked up): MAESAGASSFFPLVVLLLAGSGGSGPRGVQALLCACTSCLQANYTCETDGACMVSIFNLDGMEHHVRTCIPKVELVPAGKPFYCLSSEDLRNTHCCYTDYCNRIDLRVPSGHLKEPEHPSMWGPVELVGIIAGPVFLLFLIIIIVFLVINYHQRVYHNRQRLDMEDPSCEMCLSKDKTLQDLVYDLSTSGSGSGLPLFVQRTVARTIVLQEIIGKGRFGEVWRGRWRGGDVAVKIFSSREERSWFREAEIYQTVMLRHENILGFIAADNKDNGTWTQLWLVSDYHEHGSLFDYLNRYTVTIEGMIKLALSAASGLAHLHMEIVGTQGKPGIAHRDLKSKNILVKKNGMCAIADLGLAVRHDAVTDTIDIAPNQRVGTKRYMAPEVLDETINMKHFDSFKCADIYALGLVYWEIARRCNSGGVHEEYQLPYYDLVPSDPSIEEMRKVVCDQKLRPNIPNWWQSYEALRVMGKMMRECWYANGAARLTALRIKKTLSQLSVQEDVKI
UniProt O75676, sequence (whole entry, looked up): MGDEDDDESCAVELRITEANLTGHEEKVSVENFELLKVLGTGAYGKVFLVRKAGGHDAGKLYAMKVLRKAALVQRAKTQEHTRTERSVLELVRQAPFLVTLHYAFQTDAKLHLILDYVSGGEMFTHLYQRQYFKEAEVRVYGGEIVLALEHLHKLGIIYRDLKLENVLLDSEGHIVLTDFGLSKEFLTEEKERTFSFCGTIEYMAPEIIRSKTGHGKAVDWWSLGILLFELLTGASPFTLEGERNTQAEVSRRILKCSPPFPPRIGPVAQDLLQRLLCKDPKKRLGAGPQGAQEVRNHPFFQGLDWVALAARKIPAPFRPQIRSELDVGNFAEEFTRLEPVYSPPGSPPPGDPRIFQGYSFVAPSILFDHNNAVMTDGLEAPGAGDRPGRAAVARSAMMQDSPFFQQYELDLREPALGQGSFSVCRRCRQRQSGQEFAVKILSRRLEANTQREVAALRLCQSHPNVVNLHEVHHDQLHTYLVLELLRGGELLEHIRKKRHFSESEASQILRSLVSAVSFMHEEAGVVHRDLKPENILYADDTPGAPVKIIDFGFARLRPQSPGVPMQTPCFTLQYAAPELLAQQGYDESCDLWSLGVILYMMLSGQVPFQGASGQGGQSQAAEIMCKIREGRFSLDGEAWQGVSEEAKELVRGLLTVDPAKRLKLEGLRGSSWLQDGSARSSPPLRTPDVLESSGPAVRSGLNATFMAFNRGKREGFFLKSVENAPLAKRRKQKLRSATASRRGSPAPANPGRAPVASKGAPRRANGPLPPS
UniProt Q9UK32, sequence (whole entry, looked up): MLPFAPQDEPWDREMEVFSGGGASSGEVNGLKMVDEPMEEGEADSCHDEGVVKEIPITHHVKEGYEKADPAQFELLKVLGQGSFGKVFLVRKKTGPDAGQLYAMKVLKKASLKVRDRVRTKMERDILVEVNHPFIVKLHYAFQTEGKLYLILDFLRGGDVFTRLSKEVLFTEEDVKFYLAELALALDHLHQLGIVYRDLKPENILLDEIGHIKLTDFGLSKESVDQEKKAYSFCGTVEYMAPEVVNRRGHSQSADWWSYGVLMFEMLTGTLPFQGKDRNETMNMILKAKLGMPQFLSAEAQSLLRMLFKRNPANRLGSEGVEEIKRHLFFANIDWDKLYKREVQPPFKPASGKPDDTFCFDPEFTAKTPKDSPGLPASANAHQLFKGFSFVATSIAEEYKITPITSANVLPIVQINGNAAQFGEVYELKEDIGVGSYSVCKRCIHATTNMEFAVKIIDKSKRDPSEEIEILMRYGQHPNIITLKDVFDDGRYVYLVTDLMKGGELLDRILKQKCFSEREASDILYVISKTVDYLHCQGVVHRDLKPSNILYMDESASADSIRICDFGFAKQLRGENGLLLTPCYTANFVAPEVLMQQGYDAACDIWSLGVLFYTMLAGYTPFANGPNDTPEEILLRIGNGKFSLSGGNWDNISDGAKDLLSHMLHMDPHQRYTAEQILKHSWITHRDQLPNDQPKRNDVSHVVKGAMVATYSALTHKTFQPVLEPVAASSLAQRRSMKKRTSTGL
UniProt P49137, sequence (whole entry, looked up): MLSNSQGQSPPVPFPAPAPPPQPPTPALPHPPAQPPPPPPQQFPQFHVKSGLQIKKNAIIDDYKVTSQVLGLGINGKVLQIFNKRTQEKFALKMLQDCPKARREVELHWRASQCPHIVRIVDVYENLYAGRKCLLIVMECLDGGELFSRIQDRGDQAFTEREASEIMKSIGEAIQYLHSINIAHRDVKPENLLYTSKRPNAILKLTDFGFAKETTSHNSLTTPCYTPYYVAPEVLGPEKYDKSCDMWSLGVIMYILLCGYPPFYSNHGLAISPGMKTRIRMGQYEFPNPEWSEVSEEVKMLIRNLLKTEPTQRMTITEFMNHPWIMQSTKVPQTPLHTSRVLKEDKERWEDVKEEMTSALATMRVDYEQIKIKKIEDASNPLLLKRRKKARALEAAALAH
UniProt Q15759, sequence (whole entry, looked up): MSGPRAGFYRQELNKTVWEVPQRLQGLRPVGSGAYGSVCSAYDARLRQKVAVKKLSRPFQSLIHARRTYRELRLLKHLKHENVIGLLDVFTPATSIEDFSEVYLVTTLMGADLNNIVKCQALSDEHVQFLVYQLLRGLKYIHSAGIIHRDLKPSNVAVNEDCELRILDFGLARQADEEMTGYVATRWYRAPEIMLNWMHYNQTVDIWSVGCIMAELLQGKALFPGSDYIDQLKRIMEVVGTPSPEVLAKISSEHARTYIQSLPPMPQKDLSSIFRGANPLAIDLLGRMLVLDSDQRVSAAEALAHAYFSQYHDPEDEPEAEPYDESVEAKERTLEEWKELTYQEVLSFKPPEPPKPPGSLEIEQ
UniProt Q9Y6M4, sequence (whole entry, looked up): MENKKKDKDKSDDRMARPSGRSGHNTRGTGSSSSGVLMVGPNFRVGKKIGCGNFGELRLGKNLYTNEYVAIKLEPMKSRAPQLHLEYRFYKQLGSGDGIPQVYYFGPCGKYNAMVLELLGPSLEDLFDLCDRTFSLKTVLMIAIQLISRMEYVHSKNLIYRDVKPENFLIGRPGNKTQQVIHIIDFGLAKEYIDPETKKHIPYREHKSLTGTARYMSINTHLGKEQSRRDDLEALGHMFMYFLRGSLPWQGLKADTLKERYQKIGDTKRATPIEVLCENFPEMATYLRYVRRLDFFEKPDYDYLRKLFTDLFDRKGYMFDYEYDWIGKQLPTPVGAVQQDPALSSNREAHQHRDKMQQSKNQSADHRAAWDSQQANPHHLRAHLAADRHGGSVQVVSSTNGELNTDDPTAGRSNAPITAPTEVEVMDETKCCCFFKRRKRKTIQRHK
UniProt P31751, sequence (whole entry, looked up): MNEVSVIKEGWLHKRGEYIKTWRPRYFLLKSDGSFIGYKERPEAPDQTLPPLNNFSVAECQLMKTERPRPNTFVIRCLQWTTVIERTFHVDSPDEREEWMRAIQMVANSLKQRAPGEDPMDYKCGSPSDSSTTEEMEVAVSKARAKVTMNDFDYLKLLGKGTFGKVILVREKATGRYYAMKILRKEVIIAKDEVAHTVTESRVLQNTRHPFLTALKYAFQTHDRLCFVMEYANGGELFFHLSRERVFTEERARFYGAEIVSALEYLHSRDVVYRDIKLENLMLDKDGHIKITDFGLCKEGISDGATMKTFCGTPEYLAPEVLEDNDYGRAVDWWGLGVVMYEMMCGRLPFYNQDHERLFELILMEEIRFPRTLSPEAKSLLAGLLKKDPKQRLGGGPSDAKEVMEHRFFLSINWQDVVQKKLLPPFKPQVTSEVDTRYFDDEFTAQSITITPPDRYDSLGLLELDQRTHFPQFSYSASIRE
UniProt P53350, sequence (whole entry, looked up): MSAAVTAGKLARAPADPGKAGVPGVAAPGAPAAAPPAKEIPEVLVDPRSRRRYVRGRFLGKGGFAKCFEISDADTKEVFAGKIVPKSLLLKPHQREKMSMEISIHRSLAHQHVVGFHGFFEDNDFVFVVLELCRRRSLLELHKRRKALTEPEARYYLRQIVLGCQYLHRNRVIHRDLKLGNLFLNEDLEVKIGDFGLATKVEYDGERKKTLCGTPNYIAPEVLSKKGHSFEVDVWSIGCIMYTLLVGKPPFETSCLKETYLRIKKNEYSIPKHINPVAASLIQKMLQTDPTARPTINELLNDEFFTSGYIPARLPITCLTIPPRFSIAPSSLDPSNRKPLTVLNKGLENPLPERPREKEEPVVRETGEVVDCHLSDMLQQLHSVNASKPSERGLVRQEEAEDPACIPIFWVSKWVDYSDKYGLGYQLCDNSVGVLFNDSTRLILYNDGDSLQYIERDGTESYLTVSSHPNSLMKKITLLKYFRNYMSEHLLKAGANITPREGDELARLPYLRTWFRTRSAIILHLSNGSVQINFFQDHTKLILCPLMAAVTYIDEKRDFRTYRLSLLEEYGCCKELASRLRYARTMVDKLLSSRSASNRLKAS

Block 1
Target: Histone acetyltransferase KAT6A, both winged helices, GST fusion (KAT6A, Homo sapiens, UniProt Q92794, residues 1-181)
Technique: protein binding microarray
Molecule type: double-stranded DNA, one strand shown
Medium: in vitro
Tested at: not given
Setting: 8-mer, flanks averaged, mean of 2 arrays, mostly near background
Relative to: not given
Direction: higher = stronger binding
Residues (chain): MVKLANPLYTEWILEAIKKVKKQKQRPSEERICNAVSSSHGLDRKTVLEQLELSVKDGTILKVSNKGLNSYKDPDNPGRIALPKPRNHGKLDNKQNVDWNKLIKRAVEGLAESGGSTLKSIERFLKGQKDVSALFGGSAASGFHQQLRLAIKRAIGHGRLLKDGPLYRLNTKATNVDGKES
The E-score of `AACTGCCA` is reported as -0.0301.
`AGGGACTA` has an E-score of -0.127.
The E-score of `ACGATTAA` is reported as 0.046.
With `GTCAGGCA` the E-score was -0.144.
For `AATCGAGG`, the E-score was -0.197.
With `GTAGCATA` the E-score was -0.0316.
With `CCCTAAAG` the E-score was -0.0824.
`AAAACGTC` has an E-score of -0.0246.

Block 2
Target: Ras GTPase-activating protein-binding protein 1, full length (G3BP1, Homo sapiens, UniProt Q13283)
UniProt Q13283, sequence (whole entry, looked up): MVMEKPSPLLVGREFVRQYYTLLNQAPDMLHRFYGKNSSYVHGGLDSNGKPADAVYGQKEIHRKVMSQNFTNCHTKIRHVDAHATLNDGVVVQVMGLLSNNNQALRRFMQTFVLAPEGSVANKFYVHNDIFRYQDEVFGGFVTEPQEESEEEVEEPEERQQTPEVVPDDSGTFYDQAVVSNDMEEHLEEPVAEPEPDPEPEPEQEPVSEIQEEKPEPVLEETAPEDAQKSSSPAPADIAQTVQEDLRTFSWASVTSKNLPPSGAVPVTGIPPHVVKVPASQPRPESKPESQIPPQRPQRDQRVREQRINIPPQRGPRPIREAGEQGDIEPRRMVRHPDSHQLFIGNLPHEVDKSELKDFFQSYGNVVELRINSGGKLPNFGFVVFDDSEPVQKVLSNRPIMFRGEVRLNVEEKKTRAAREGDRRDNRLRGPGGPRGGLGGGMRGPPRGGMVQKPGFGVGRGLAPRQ
Technique: RNA Bind-n-Seq
Molecule type: RNA
Medium: in vitro
Tested at: 200 nM
Setting: whole 134-nt RNA, ends assumed
Together with: 150 mM LiCl
Relative to: input library
Direction: higher = stronger binding
Each molecule: 7-deaza-guanosine replaces G
`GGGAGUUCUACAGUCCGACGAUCUAACUUUAGAGGAGGAUCUGAUGGAUAUGGCAGUGGACGUGGAUUUGGGGAUGGCUUUAAUGGGUAUGGAGGAGGACCUGGAGGUGGCAAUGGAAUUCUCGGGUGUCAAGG` gave a log2 enrichment of -0.258.
`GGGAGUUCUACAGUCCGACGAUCCUCAAGUCCUGUGCUACACAUCGUAUGUACCGAAUCGGGGCCGGCCGGCCGGGAAAGUAUUAUGUUACGCCGUUCGGAUCUGCACUUCCAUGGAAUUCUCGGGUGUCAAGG` has a log2 enrichment of 0.786.
With `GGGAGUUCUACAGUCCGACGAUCUGGGAGGUGGAUUUUGUUUAUUUUUUUAGCUCAUUUCCAGGGGUGGGAAUUUUUUUUUAAUAUGGGUCAUGAAUAAAGUUGUUUUUGAAAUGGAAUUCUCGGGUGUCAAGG` the log2 enrichment was 0.266.
With `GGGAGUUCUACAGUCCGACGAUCCUCAAGUCCUGUGCUACACAUCGUAUGUACCGAAUCGGAAAGGAAAGGGAAAGGAAAGUAUUAUGUUACGCCGUUCGGAUCUGCACUUCCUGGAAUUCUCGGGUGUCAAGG` the log2 enrichment was 0.0082.
`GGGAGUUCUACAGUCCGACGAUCGUCCUGUGCUACACAUCGUAUGUACCGAAUCGGGGAAAGGGGAAAGGGGAAAAAGGGGAAAGUAUUAUGUUACGCCGUUCGGAUCUGCACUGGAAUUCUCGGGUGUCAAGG` has a log2 enrichment of 0.518.
`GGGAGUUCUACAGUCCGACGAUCAAGUCCUGUGCUACACAUCGUAUGUACCGAAUCGGGUUUUGGGUUUUGGUUUUGGGAAAGUAUUAUGUUACGCCGUUCGGAUCUGCACUUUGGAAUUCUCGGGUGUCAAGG` gave a log2 enrichment of -0.892.
`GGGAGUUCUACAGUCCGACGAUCCCUGUGCUACACAUCGUAUGUACCGAAUCAAACCCCCAAAUUUUUUUAAAUUUUUUUAAAAAAGUAUUAUGUUACGCCGUUCGGAUCUGCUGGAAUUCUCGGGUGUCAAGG` has a log2 enrichment of 1.37.
The log2 enrichment of `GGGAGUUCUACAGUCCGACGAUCAAGUCCUGUGCUACACAUCGUAUGUACCGAAUCGGGGUUUGGGGUUUGGGUUUGGGGAAAGUAUUAUGUUACGCCGUUCGGAUCUGCACUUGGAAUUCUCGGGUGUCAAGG` is reported as -0.00838.

Block 3
Structure (SMILES): CNC(=O)Nc1ccc2c(c1)[C@@]1(CC2)OC(=O)N(CC(=O)N(Cc2ccc(F)cc2)[C@@H](C)C(F)(F)F)C1=O
Tested at: 1 µM
It gave 100% for remaining binding (HCK (Homo sapiens, UniProt P08631); cell-free assay, competition with immobilised ligand).
For Ribosomal protein S6 kinase alpha-6, C-terminal kinase domain (RPS6KA6, Homo sapiens, UniProt Q9UK32); cell-free assay, competition with immobilised ligand: remaining binding read 100%.
For FLT3 (Homo sapiens, UniProt P36888, D835H); cell-free assay, competition with immobilised ligand: remaining binding read 99%.
Ribosomal protein S6 kinase alpha-4, N-terminal kinase domain (RPS6KA4, Homo sapiens, UniProt O75676); cell-free assay, competition with immobilised ligand — remaining binding: 100%.
MARK4 (Homo sapiens, UniProt Q96L34); cell-free assay, competition with immobilised ligand — remaining binding: 92%.
For PIK3CA (Homo sapiens, UniProt P42336, E542K); cell-free assay, competition with immobilised ligand: remaining binding read 69%.
It gave 99% for remaining binding (AKT2 (Homo sapiens, UniProt P31751); cell-free assay, competition with immobilised ligand).
The remaining binding was 100% (MAPK11 (Homo sapiens, UniProt Q15759); cell-free assay, competition with immobilised ligand).
For DMPK (Homo sapiens, UniProt Q09013); cell-free assay, competition with immobilised ligand: remaining binding read 92%.
It gave 100% for remaining binding (EGFR (Homo sapiens, UniProt P00533, del747-750/T751S); cell-free assay, competition with immobilised ligand).
For PLK1 (Homo sapiens, UniProt P53350); cell-free assay, competition with immobilised ligand: remaining binding read 82%.
ACVR1B (Homo sapiens, UniProt P36896); cell-free assay, competition with immobilised ligand — remaining binding: 100%.
The remaining binding was 100% (CDK19 (Homo sapiens, UniProt Q9BWU1); competition binding).

Block 4
SMILES: Cn1cc(/C=C2\C(=O)Nc3ccc(S(N)(=O)=O)cc32)c2ccccc21
Read-out: enzyme activity
Mode: inhibitor
Tested at: 0.5 µM
Relative to: control
The remaining activity was 72.3% (ULK2 (Homo sapiens, UniProt Q8IYT8)).
For RPS6KA2 (Homo sapiens, UniProt Q15349): remaining activity read 9.26%.
CSNK1G3 (Homo sapiens, UniProt Q9Y6M4) — remaining activity: 109%.
The remaining activity was 45.9% (MERTK (Homo sapiens, UniProt Q12866)).
The remaining activity was 33.8% (FGFR3 (Homo sapiens, UniProt P22607)).
The remaining activity was 15.8% (ULK3 (Homo sapiens, UniProt Q6PHR2)).
For CSNK1G2 (Homo sapiens, UniProt P78368): remaining activity read 100%.
For EPHA3 (Homo sapiens, UniProt P29320): remaining activity read 80.9%.
For LCK (Homo sapiens, UniProt P06239): remaining activity read 57.6%.
ACVR1B (Homo sapiens, UniProt P36896) — remaining activity: 98.4%.
For MAP2K2 (Homo sapiens, UniProt P36507): remaining activity read 94.7%.
MAPKAPK2 (Homo sapiens, UniProt P49137) — remaining activity: 101%.
For GRK7 (Homo sapiens, UniProt Q8WTQ7): remaining activity read 20.9%.

Excerpt of the above (block 4):
CSNK1G3 (Homo sapiens, UniProt Q9Y6M4) — remaining activity: 109%.
The remaining activity was 45.9% (MERTK (Homo sapiens, UniProt Q12866)).
The remaining activity was 33.8% (FGFR3 (Homo sapiens, UniProt P22607)).
The remaining activity was 15.8% (ULK3 (Homo sapiens, UniProt Q6PHR2)).
For CSNK1G2 (Homo sapiens, UniProt P78368): remaining activity read 100%.
For EPHA3 (Homo sapiens, UniProt P29320): remaining activity read 80.9%.
